Published values gathered from unrelated publications.
Protocols differ between the studies behind these lines.
Cell line: COLO 205

The growth percent of `COc1cc(CNC(=O)C[C@H](C)CCC=C(C)C)ccc1OCc1cn(-c2ccc(Cl)c(Cl)c2)nn1` is reported as 53.6% (SRB; 10 µM, 48 h).
`CC(=C(c1ccc(O)cc1)c1ccc(Cl)cc1)c1ccc(Cl)cc1` gave a GI50 of 2.44 µM (cell growth or viability, SRB).
The growth percent of `COc1cc(CNC(=O)C[C@H](C)CCC=C(C)C)ccc1OCc1cn(-c2cccc(C(F)(F)F)c2)nn1` is reported as 74.2% (SRB; 10 µM, 48 h).
The inhibition of `COc1ccc2c(c1)/C(=N\Nc1nnc3n1N=C(c1ccccc1)CS3)C(=O)N2` is reported as 17% (cell growth or viability, SRB; 10 µM).
For `O=C(CSc1nc(-c2ccccc2)n[nH]1)N1CCC(=C2c3ncccc3CCc3cc(Cl)cc(Br)c32)CC1`, the IC50 was > 120 µM (cell growth or viability, SRB).
For `CC(=O)OC[C@H]1O[C@@H](Sc2sc(C(=O)c3ccc(Br)cc3)c(N)c2-c2nc3ccccc3s2)[C@H](OC(C)=O)[C@@H](OC(C)=O)[C@@H]1OC(C)=O`, the growth was 63.8% (SRB; 10 µM, 48 h; reference: untreated).
For `O=C(CNc1nnc(-c2ccccc2)s1)N1CCC(=C2c3ncccc3CCc3cc(Cl)cc(Br)c32)CC1`, the IC50 was > 120 µM (cell growth or viability, SRB).
The growth percent of `COc1cc(CNC(=O)C[C@H](C)CCC=C(C)C)ccc1OCc1cn(-c2cccc(Cl)c2)nn1` is reported as 103% (SRB; 10 µM, 48 h).
The IC50 of `Cn1c(SCC(=O)N2CCC(=C3c4ncccc4CCc4cc(Cl)cc(Br)c43)CC2)nnc1-c1ccccc1` is reported as > 120 µM (cell growth or viability, SRB).
`COc1cc(CNC(=O)C[C@H](C)CCC=C(C)C)ccc1OCc1cn(-c2ccccc2)nn1` gave a growth percent of 99% (SRB; 10 µM, 48 h).
With `O=C(CN1CCN(c2nsc3ccccc23)CC1)N1CCC(=C2c3ncccc3CCc3cc(Cl)cc(Br)c32)CC1` the IC50 was 90 µM (cell growth or viability, SRB).
With `CC(=O)OC[C@H]1O[C@@H](Sc2sc(C(=O)c3ccc(C)cc3)c(N)c2-c2nc3ccccc3s2)[C@H](OC(C)=O)[C@@H](OC(C)=O)[C@H]1OC(C)=O` the growth was 82.6% (SRB; 10 µM, 48 h; reference: untreated).
For `CC/C=C\C/C=C\C/C=C\C/C=C\C/C=C\C/C=C\CCC(=O)Nc1ccn(C2OC(CO)C(O)C2(F)F)c(=O)n1` (centres unmarked), the GI50 was 0.143 µM (cell growth or viability, SRB).
With `CCOC(=O)C1=C(C)NC(=O)N[C@@H]1/C=C/c1ccc(OC)cc1` the IC50 was 14.7 µM (cell growth or viability, MTT; 24 h).

Some of these lines once more:
The IC50 of `Cn1c(SCC(=O)N2CCC(=C3c4ncccc4CCc4cc(Cl)cc(Br)c43)CC2)nnc1-c1ccccc1` is reported as > 120 µM (cell growth or viability, SRB).
`COc1cc(CNC(=O)C[C@H](C)CCC=C(C)C)ccc1OCc1cn(-c2ccccc2)nn1` gave a growth percent of 99% (SRB; 10 µM, 48 h).
